Measurements collected from several papers.
Protocols differ between the studies behind these lines. ± gives the spread as reported.
Organism: Salmonella typhimurium

Compound | test | test system | conditions | scale | measurement | result
COCCN(CCOC)N=O | mutagenicity, Ames plate incorporation | TA1535 | 5000 µg/plate, 3 d, without S9, methanol |  | revertant colonies per plate | 21.3 ± 4
O=[N+]([O-])c1ccc(NC2CCNCC2)c(C(F)(F)F)c1 | SOS/umu test | TA1535/pSK1002 | 0.004 mg/mL, 4 h, with S9, full range |  | survival | 99.5%
O=NN1CCN(C2CCCC2)CC1 | mutagenicity, Ames plate incorporation | TA98 | 50 µg/plate, 3 d, without S9, methanol |  | revertant colonies per plate | 31 ± 4
COc1cccc(-c2n[nH]c(SCc3ccccn3)n2)c1OC | Ames test, preincubation | TA1537 | 0.063 mg/plate, without S9 |  | revertant colonies per plate | 9
O=[N+]([O-])c1ccc(N2CCC(NCCC(O)c3ccc(F)c4ccccc34)CC2)c(C(F)(F)F)c1 (stereo not drawn) | SOS/umu test | TA1535/pSK1002 | 6.1e-05 mg/mL, 4 h, with 10% rat liver S9 |  | survival | 90.9%
N#C[C@@]1(n2ccc(N)nc2=O)O[C@H](CO)[C@@H](O)[C@H]1O |  | TA100 | 50 µM, without S9, unit not given | relative to: control | viability | 79.5
CNC(=O)c1c(N(C)N=O)ncn1C | plate incorporation | TA100, water | 150 µg/plate, without S9 |  | revertant colonies per plate | 198 ± 22
Cc1cc(C(=O)NC(C)(C)COc2cccc3c2C(N)=NS(=O)(=O)N3)cc(C)n1 | Ames test, initial | TA98 | 50.0 µg/plate, with: rat liver S9 | relative to: solvent control | revertant ratio | 0.9
O=[N+]([O-])c1ccc(N2CCN(CCC(O)c3ccc(F)cc3)CC2)c(C(F)(F)F)c1 (stereo not drawn) | genotoxicity, SOS/umu test | TA1535/pSK1002 | 0.001 mg/mL, 4 h, with S9, lower range |  | induction factor | 1
CC(=O)N1CCC(C(=O)N2CCN3C(=O)c4cc(-c5ccccc5)ccc4NC(=O)C3C2)CC1 (stereo not drawn) |  | TA1537 | 5000 µg/plate, with: rat liver S9 | relative to: vehicle | fold increase in revertants | 1.3
Fc1ccc(C2=CCNCC2)cc1 | SOS/umu test | TA1535/pSK1002 | 0.008 mg/mL, 4 h, without S9, full range |  | survival | 92.5%
CC(C)N(N=O)C(C)C | mutagenicity, Ames plate incorporation | TA100 | 1500 µg/plate, without S9, methanol |  | revertant colonies per plate | 150 ± 7

Repeated from above:
Compound | test | test system | conditions | scale | measurement | result
CNC(=O)c1c(N(C)N=O)ncn1C | plate incorporation | TA100, water | 150 µg/plate, without S9 |  | revertant colonies per plate | 198 ± 22
N#C[C@@]1(n2ccc(N)nc2=O)O[C@H](CO)[C@@H](O)[C@H]1O |  | TA100 | 50 µM, without S9, unit not given | relative to: control | viability | 79.5
